Assay results from different studies.
Compare with care: the assays were run in different laboratories. ± gives the spread as reported.
Sequence of UniProt P41743 (whole entry, looked up): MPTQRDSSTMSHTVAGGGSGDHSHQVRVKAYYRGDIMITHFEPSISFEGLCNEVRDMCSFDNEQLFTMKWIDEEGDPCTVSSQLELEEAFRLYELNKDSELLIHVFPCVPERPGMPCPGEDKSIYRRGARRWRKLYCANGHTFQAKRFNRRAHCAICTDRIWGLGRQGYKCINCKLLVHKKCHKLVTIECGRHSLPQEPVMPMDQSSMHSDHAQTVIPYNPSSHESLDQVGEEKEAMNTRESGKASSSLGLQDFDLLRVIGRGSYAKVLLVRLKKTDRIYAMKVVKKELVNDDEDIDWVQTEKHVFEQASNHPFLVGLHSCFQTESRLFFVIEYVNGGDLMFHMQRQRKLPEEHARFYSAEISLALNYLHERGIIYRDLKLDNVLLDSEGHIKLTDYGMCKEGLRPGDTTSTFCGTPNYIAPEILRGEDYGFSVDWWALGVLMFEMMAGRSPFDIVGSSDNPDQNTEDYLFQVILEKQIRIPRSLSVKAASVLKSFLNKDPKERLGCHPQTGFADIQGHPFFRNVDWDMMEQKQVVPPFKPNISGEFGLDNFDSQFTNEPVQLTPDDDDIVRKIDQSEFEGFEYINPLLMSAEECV
Sequence of UniProt P68400 (whole entry, looked up): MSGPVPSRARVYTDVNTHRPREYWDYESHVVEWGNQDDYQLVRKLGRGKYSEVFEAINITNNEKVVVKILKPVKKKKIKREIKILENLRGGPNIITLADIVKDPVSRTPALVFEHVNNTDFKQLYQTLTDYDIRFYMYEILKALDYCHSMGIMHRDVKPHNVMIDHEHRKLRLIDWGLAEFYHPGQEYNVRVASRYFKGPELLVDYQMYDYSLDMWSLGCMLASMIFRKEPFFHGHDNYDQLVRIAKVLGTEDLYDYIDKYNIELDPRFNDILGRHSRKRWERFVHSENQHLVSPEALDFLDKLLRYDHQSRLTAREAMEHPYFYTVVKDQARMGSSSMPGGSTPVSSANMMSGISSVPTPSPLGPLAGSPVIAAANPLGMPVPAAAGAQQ
Sequence of UniProt Q16539 (whole entry, looked up): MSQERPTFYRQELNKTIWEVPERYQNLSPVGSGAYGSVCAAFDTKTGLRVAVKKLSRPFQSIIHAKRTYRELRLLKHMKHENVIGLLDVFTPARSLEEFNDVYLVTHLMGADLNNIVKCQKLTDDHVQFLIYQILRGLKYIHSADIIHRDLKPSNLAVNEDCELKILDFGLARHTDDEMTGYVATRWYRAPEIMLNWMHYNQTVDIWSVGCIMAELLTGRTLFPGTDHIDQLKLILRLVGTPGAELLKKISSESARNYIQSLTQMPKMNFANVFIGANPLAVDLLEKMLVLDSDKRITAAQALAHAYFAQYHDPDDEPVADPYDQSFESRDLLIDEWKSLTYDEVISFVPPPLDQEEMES

| Compound | tested on | test | system | conditions | scale | quantity | value |
| --- | --- | --- | --- | --- | --- | --- | --- |
| O=C(c1ccccc1O)c1[nH]c(Cl)c(Cl)c1-n1c(C(=O)c2ccccc2O)cc(Cl)c1Cl | Shigella sonnei | microbial growth | ATCC25931 |  |  | MIC | > 64 µM |
| CC[C@H](C)[C@H](NC(=O)[C@H](CCCCN)NC(=O)[C@H](CCCCN)NC(=O)[C@H](Cc1ccccc1)NC(=O)[C@H](Cc1ccccc1)NC(=O)[C@H](CCCCN)NC(=O)[C@H](CCCCN)NC(=O)[C@H](Cc1ccccc1)NC(=O)[C@H](CCCNC(=N)N)NC(=O)[C@@H](N)CCCCN)C(=O)N[C@@H](CCCCN)C(=O)N[C@@H](CCCCN)C(=O)N[C@@H](CO)C(=O)N[C@H](C(=O)N[C@@H](CCCCN)C(=O)N[C@@H](CCCCN)C(=O)N[C@@H](CCCNC(=N)N)C(=O)N[C@H](C(=O)N[C@@H](CCCCN)C(=O)N[C@@H](CCCCN)C(=O)N[C@@H](CC(C)C)C(=O)N[C@@H](Cc1ccccc1)C(=O)N[C@@H](CCCCN)C(=O)N[C@@H](CCCCN)C(=O)N1CCC[C@H]1C(=O)N[C@@H](CCCNC(=N)N)C(=O)N[C@H](C(=O)N[C@H](C(=O)N1CCC[C@H]1C(=O)N[C@H](C(=O)N[C@@H](CO)C(=O)N[C@H](C(=O)N1CCC[C@H]1C(=O)N[C@@H](Cc1ccccc1)C(=O)O)[C@@H](C)CC)[C@@H](C)CC)[C@@H](C)CC)C(C)C)C(C)C)C(C)C | Escherichia coli | broth microdilution | E25 clinical isolate | 20 h |  | MIC | 4 µg/mL |
| CC[C@H](C)[C@@H]1NC(=O)[C@@H]([C@@H](C)O)NC(=O)CNC(=O)[C@H](CC(=O)O)NC(=O)CNC(=O)[C@H](CC(=O)O)NC(=O)CNC(=O)[C@H]2CCCCN2C(=O)[C@@H](NC(=O)[C@H](CC(=O)O)NC(=O)/C=C/CCCCCCCCCC(C)C)CNC(=O)[C@@H]2CCCN2C1=O | Enterococcus faecium | broth microdilution | daptomycin-resistant isolate, Mueller-Hinton broth, Mg2+ 10 mg/L | 16 h, with: Ca2+ 0 mM |  | MIC | > 128 µg/mL |
| CC(C)[C@H]1NC(=O)C[C@H]2/C=C/CCSSC[C@@H](NC1=O)C(=O)N[C@H](Cc1cccc3ccccc13)C(=O)NCC(=O)O2 | Casein kinase II subunit alpha, with CK2 beta (CSNK2A1, Homo sapiens, UniProt P68400) |  |  | 10 µM |  | inhibition | -5.4% |
| c1ccc(CCNC2CCCc3c2[nH]c2ccc(C4CCCCC4)cc32)cc1 (stereo not drawn) | Staphylococcus aureus | broth microdilution | SA113 |  |  | MIC | 4 µg/mL |
| CC(C)(C)C(=O)OCOP(=O)(OCOC(=O)C(C)(C)C)C1CCCN(O)C1=O (stereo not drawn) | ACHN |  |  |  |  | log LC50 | > -4 log M |
| CC[C@H](C)[C@H](NC(=O)[C@H](CCCNC(=N)N)NC(=O)[C@H](CO)NC(=O)[C@H](Cc1ccc(O)cc1)NC(=O)[C@@H](NC(=O)[C@@H](NC(=O)[C@H](C)NC(=O)CNC(=O)[C@H](CCCCN)NC(=O)[C@H](CCCCN)NC(=O)CCNC(=O)CCCCCNC(=O)[C@H](CCCNC(=N)N)NC(=O)CCCCCNC(=O)[C@H](CCCNC(=N)N)NC(=O)[C@H](CCCNC(=N)N)NC(=O)CCCCCNC(=O)[C@H](CCCNC(=N)N)NC(=O)[C@H](CCCNC(=N)N)NC(=O)CCCCCNC(=O)[C@H](CCCNC(=N)N)NC(=O)[C@H](CCCNC(=N)N)NC(=O)CCCCCNC(=O)[C@@H](N)CCCNC(=N)N)C(C)C)[C@@H](C)O)C(=O)N[C@@H](CO)C(=O)NCC(=O)N[C@@H](CCC(N)=O)C(=O)N[C@@H](Cc1ccc(O)cc1)C(=O)N[C@@H](CCCCN)C(=O)O | Escherichia coli |  | ATCC 25922 | 1 h, 37 °C, after 25% fetal bovine serum |  | MIC | 6 µM |
| CN(C)[C@H]1C[C@@]23CC[C@@]4(O2)C(=CC[C@]2(C)[C@@H](c5ccc6ccncc6c5)CC[C@H]24)C=C3[C@@H](O)[C@@H]1O | MAPK14 (Homo sapiens, UniProt Q16539) | ATP probe labelling, inhibitor, KiNativ profiling |  | 0.1 µM |  | inhibition | 11.1% |
| COc1ccccc1-c1n[nH]c2nc(N[C@H]3CC[C@H](NS(=O)(=O)CC(C)C)CC3)ncc12 |  | bead binding, competition bead pull-down, measured: LMJF.36.5010 | Leishmania donovani extract | 10 µM | baseline: vehicle | relative abundance | 1.13 |
| CS(C)(=O)=Nc1ccc(-c2ccc(-c3nc4cc(O[C@@H]5CO[C@H]6[C@@H]5OC[C@H]6O)[nH]c4cc3F)cc2)cc1 | PRKCI (Homo sapiens, UniProt P41743) | enzyme activity, inhibitor |  | 10 µM |  | inhibition | -2% |
| OB(O)c1ccc(OCc2ccccc2)nc1F | Enterobacter cloacae | bacterial growth | AmpC overproducer clinical isolate | without cefotaxime |  | MIC | > 2050 µg/mL |
| C#CCOc1ccc(CN[C@@]2(C)C[C@H](O[C@H]3[C@H](Oc4c5cc6cc4Oc4ccc(cc4Cl)[C@@H](O)[C@@H](NC(=O)[C@@H](CC(C)C)NC)C(=O)N[C@@H](CC(N)=O)C(=O)N[C@H]6C(=O)N[C@H]4C(=O)N[C@H](C(=O)N[C@H](C(=O)N[C@@H](CCCNC(=N)N)C(N)=O)c6cc(O)cc(O)c6-c6cc4ccc6O)[C@H](O)c4ccc(c(Cl)c4)O5)O[C@H](CO)[C@@H](O)[C@@H]3O)O[C@@H](C)[C@H]2O)cc1OC | Enterococcus faecium |  | VRE vanB |  |  | MIC | 2 µM |
| [O-][N+]1=C(c2ccsc2)C2=NCCCN2c2ccccc21 | Prevotella spp. |  |  |  |  | MIC | 0.06 to 1 µg/mL |
| CCCCCCCCCCCCCC(=O)N[C@H]1C(=O)N[C@@H](CN)C(=O)N[C@@H](CO)C(=O)N[C@@H](Cc2ccc(O)cc2)C(=O)O[C@H]1C | Staphylococcus aureus |  | SH1000 | with: sphingomyelin, molar ratio 1 |  | MIC | 2 µg/mL |
| CC(=O)N[C@@H](CC(C)C)C(=O)N[C@H]1CSSC[C@@H](C(=O)N2CCC[C@H]2C(N)=O)NC(=O)[C@H]([C@@H](C)O)NC(=O)[C@H](C(C)C)NC(=O)[C@H]([C@@H](C)O)NC(=O)CNC(=O)[C@H](CC(C)C)NC(=O)[C@H](Cc2ccccc2)NC(=O)[C@H](Cc2ccc(O)cc2)NC(=O)[C@H](CC(C)C)NC(=O)[C@H](CCCCN)NC(=O)[C@H](Cc2ccccc2)NC(=O)[C@H](CCCNC(=N)N)NC(=O)[C@H](CCCCN)NC(=O)[C@H](CC(C)C)NC(=O)[C@H](CCCCN)NC(=O)[C@@H]2CCCN2C(=O)[C@H](CCCCN)NC(=O)[C@H](C(C)C)NC(=O)[C@H](CC(N)=O)NC(=O)[C@H](Cc2ccc(O)cc2)NC(=O)[C@H]([C@@H](C)O)NC1=O | Pseudomonas fluorescens | broth dilution | CGMCC strain | 24 h |  | MIC | 1.25 to 2.5 µM |
| CC[C@H](C)[C@H](NC(=O)[C@H](C)NC(=O)CNC(=O)[C@H](C)NC(=O)[C@H](CCCCN)NC(=O)[C@H](CO)NC(=O)[C@H](C)NC(=O)[C@H](CCSC)NC(=O)CN)C(=O)N[C@@H](C)C(=O)NCC(=O)N[C@@H](CCCCN)C(=O)N[C@H](C(=O)N[C@@H](C)C(=O)N[C@@H](CCCCN)C(=O)N[C@H](C(=O)N[C@@H](C)C(=O)N[C@@H](CC(C)C)C(=O)N[C@@H](CCCCN)C(=O)N[C@@H](C)C(=O)N[C@@H](CC(C)C)C(N)=O)C(C)C)[C@@H](C)CC | Escherichia coli |  | CFT073 wild type | 18 h, 37 °C, minimal salts medium |  | MIC | 2.5 µg/mL |
| COc1ccc(C2=[N+]([O-])c3ccccc3N3CC(C)(C)CN=C23)cc1 | Prevotella spp. |  |  |  |  | MIC | 0.125 to 0.5 µg/mL |
| CC1(C)C(NC(=O)C(=NOC2(C(=O)O)CC2)c2csc(N)n2)C(=O)N1OS(=O)(=O)O (stereo not drawn) | Enterobacter cloacae |  | ATCC 2468, NDM-positive | compound alone |  | MIC | 4 µg/mL |
| CC1(C)S[C@@H]2[C@H](NC(=O)[C@H](NC(=O)C3=C(O)C(c4ccccc4F)NC3=O)c3ccccc3)C(=O)N2[C@H]1C(=O)O (stereo partly drawn) | Escherichia coli | broth microdilution | JW0790-2 fiu deletion mutant | ferric iron uptake gene |  | MIC | 50 µg/mL |
| O=C1NC2(CC2)COc2ncc(F)cc2[C@H]2COCCN2c2ccn3ncc1c3n2 |  |  | Sprague-Dawley rat, female, serum | oral, 2.5 mg/kg/day, end of recovery, 4-week subacute toxicity |  | serum hepatic lipase activity | 3.4 ± 0.6 U/L |
| Cc1cc(C(=O)Nc2nc3cccc(C)c3n2[C@H]2CCCCN(C(=O)/C=C/CN(C)C)C2)ccn1 | Trypanosoma brucei | propidium iodide flow cytometry | bloodstream form | concentration not given, 16 h |  | multinucleated cells | 10.6% |
| O=c1n(CCNCCOS(=O)(=O)c2ccccc2)c(=O)n(S(=O)(=O)c2ccccc2)c(=O)n1S(=O)(=O)c1ccccc1 | Bacillus cereus | microbial growth, broth dilution |  |  |  | MIC | 2 µg/mL |
| COc1ccccc1-c1n[nH]c2nc(NC3CCN(C(=O)Cc4ccc(F)cc4F)CC3)ncc12 |  | bead binding, competition bead pull-down, measured: LMJF.05.0030 | Leishmania donovani extract | 10 µM | baseline: vehicle | relative abundance | 1.03 |
| CC(C)CCCCCCCCC/C=C/C(=O)N[C@@H](CC(=O)O)C(=O)N[C@H]1CNC(=O)[C@@H]2CCCN2C(=O)[C@H](C(C)C)NC(=O)[C@@H](CN)NC(=O)CNC(=O)[C@H](CC(=O)O)NC(=O)CNC(=O)[C@H](CC(=O)O)NC(=O)[C@H](CC(=O)O)NC(=O)[C@H]2CCCCN2C1=O | Staphylococcus aureus | broth microdilution | MRSA USA300, Mueller-Hinton broth, Mg2+ 10 mg/L | 16 h, 37 °C, with: Ca2+ 5 mM |  | MIC | 2 µg/mL |

For quick reference, copied from above:
| Compound | tested on | test | system | conditions | scale | quantity | value |
| --- | --- | --- | --- | --- | --- | --- | --- |
| CN(C)[C@H]1C[C@@]23CC[C@@]4(O2)C(=CC[C@]2(C)[C@@H](c5ccc6ccncc6c5)CC[C@H]24)C=C3[C@@H](O)[C@@H]1O | MAPK14 (Homo sapiens, UniProt Q16539) | ATP probe labelling, inhibitor, KiNativ profiling |  | 0.1 µM |  | inhibition | 11.1% |
| COc1ccccc1-c1n[nH]c2nc(N[C@H]3CC[C@H](NS(=O)(=O)CC(C)C)CC3)ncc12 |  | bead binding, competition bead pull-down, measured: LMJF.36.5010 | Leishmania donovani extract | 10 µM | baseline: vehicle | relative abundance | 1.13 |
| CS(C)(=O)=Nc1ccc(-c2ccc(-c3nc4cc(O[C@@H]5CO[C@H]6[C@@H]5OC[C@H]6O)[nH]c4cc3F)cc2)cc1 | PRKCI (Homo sapiens, UniProt P41743) | enzyme activity, inhibitor |  | 10 µM |  | inhibition | -2% |
| OB(O)c1ccc(OCc2ccccc2)nc1F | Enterobacter cloacae | bacterial growth | AmpC overproducer clinical isolate | without cefotaxime |  | MIC | > 2050 µg/mL |
